Measured values from different studies.
± gives the spread as reported. Non-standard residues stand in square brackets, D forms with d. No end group written: not given here.
CHRM1: Muscarinic acetylcholine receptor M1 (CHRM1, Homo sapiens, UniProt P11229)
UniProt P11229, sequence (whole entry, looked up): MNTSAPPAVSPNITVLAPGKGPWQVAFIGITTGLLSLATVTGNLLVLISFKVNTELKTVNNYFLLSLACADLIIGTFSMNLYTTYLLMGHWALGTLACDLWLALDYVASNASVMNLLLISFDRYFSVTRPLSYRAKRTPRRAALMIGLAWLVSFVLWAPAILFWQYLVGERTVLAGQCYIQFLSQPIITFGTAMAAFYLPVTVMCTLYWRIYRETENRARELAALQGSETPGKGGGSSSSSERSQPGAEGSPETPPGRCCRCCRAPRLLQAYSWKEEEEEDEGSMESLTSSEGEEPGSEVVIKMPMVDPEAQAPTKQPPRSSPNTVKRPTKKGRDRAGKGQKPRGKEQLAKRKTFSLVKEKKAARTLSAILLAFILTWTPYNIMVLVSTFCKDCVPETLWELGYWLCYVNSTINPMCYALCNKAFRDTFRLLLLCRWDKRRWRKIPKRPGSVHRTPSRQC
T1: c-di-GMP riboswitch (Clostridium acetobutylicum); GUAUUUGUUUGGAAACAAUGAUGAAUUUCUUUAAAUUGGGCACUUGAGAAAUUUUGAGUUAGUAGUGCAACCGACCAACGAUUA
B1: N-βAla, stapled; βAla = NCCC(=O)O; chain [βAla]RTKQEARKSTGG (also: sidechain bridge or staple (positions not given here))
UniProt Q8TDU6, sequence (whole entry, looked up): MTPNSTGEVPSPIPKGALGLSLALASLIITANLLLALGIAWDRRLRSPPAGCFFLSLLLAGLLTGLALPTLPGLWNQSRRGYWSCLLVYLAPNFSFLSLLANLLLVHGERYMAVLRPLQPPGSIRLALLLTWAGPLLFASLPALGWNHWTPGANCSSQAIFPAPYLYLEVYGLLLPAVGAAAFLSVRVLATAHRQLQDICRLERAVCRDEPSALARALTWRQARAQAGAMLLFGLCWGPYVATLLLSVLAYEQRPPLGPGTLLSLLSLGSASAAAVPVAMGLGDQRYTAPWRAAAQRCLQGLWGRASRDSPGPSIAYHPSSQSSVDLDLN
UniProt Q9Y5Y9, sequence (whole entry, looked up): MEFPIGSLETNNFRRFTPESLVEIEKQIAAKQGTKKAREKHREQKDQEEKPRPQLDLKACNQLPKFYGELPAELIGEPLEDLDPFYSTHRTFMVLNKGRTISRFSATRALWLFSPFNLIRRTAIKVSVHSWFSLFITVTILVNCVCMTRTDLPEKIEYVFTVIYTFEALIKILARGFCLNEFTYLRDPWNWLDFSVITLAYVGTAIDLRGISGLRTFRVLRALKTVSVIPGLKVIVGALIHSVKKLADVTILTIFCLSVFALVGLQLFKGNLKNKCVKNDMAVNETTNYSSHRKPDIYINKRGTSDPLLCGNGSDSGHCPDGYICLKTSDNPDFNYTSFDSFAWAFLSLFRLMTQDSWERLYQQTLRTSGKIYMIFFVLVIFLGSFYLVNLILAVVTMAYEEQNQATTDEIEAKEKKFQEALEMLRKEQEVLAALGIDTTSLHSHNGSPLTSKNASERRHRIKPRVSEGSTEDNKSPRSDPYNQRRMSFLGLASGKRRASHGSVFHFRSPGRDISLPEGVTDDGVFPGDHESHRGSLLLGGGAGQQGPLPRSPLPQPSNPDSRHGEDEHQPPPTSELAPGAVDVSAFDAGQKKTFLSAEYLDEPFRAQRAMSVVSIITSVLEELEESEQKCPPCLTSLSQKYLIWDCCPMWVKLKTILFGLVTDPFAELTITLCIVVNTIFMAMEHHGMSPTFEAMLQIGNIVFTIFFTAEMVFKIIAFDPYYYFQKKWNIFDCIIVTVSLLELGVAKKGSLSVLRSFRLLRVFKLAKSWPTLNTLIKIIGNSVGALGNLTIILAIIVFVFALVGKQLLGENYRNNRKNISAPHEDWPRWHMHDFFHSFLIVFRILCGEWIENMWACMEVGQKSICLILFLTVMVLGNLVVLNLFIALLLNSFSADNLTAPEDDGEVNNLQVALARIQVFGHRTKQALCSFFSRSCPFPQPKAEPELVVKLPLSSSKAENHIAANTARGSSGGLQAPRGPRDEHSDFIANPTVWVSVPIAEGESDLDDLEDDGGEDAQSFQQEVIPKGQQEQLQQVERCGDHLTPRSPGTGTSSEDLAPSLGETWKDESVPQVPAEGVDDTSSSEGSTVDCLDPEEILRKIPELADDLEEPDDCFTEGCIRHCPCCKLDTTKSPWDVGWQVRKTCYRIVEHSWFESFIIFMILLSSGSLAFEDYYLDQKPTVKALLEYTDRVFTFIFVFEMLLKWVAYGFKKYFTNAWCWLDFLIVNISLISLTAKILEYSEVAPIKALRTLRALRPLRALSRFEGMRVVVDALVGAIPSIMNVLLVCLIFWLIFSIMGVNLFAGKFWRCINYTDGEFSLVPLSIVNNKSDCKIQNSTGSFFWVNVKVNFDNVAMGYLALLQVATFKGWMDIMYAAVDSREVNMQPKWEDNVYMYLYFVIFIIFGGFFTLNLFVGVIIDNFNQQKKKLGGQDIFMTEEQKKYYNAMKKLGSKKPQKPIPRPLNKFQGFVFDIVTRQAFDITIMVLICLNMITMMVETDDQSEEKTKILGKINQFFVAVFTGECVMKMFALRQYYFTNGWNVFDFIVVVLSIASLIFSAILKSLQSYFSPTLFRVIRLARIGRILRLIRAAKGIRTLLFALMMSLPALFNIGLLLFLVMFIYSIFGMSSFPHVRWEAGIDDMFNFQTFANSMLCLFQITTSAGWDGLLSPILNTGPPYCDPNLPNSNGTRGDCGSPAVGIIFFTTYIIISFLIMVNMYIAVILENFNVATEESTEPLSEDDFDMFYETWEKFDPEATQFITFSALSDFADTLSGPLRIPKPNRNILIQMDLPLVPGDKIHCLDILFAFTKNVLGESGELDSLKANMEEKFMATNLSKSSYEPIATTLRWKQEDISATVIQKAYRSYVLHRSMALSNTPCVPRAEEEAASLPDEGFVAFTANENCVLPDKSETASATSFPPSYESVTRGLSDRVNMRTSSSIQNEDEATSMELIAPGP
UniProt Q21974, sequence (whole entry, unmodified, looked up): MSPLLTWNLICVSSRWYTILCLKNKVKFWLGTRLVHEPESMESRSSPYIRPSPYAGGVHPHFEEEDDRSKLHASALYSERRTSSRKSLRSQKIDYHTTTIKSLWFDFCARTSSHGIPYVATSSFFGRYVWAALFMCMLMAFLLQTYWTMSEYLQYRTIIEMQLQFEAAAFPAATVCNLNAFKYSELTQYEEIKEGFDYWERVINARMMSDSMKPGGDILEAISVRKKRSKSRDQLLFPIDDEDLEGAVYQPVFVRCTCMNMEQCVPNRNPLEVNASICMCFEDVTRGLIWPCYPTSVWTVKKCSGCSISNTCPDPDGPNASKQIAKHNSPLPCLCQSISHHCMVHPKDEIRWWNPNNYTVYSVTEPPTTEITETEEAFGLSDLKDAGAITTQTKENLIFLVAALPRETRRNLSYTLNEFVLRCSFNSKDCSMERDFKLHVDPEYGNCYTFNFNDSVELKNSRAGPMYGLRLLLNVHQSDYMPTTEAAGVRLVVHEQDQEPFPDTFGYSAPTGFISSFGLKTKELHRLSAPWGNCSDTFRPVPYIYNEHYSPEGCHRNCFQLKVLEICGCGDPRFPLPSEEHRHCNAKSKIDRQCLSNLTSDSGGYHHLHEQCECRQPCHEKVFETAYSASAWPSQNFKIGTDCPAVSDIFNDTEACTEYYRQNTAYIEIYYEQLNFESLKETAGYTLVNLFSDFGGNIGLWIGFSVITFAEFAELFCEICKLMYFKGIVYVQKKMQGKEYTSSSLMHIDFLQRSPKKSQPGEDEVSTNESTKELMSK
UniProt P03958, sequence (whole entry, looked up): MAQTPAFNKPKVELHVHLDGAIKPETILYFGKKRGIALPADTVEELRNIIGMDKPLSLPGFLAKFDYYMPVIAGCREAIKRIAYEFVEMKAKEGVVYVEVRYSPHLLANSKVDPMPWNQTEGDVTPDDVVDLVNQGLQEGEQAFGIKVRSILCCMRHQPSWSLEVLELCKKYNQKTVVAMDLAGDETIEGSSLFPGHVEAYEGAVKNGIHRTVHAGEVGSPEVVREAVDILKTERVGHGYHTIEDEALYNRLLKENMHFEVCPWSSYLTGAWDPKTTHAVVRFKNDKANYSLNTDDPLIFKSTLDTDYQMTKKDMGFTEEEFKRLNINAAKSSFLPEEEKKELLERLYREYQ
UniProt P19111, sequence (whole entry, looked up): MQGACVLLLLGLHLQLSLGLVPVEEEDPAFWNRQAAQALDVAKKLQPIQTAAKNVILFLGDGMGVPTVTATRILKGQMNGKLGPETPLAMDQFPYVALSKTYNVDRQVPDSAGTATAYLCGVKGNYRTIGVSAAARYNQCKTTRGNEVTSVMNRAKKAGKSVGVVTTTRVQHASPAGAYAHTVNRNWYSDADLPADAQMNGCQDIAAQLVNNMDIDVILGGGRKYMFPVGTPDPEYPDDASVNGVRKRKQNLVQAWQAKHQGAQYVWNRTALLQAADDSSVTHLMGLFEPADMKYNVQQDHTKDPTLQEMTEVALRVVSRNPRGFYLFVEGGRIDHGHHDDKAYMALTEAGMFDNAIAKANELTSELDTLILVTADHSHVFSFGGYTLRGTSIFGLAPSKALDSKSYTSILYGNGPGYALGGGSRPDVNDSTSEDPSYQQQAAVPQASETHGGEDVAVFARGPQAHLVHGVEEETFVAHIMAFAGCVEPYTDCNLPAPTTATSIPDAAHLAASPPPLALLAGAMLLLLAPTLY
UniProt P08173, sequence (whole entry, looked up): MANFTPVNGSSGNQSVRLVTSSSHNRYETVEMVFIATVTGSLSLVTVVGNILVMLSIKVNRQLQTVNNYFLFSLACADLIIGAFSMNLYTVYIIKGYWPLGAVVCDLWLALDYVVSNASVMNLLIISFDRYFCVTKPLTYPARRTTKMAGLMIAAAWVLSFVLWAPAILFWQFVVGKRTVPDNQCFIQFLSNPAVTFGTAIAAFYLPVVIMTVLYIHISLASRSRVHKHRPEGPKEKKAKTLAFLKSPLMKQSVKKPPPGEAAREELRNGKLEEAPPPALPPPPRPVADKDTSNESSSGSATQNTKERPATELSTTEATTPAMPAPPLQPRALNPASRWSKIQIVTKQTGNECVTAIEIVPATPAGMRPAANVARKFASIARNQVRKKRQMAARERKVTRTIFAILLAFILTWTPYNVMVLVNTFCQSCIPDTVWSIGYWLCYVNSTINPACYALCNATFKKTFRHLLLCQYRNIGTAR

CCN(c1nc(N)c(C(=O)NC(=N)N)nc1Cl)C(C)C has a current change of 0.61 µA (unc-8 (Caenorhabditis elegans, UniProt Q21974, G387E); ion current, two-electrode voltage clamp; Xenopus oocytes coexpressing MEC-2; 30 µM, -85 mV; reference: uninjected oocytes, positive = inhibition).
Nc1ncnc2c1ncn2[C@@H]1O[C@H](CO)C[C@H]1O has a Vmax of 12.1 nmol/min/mg (Adenosine deaminase (Mus musculus, UniProt P03958); substrate; mouse erythrocytes; 30 min, 37 °C).
Brc1ccc2[nH]ccc2c1 has a conversion of 48.1% (Dehaloperoxidase B, ferric (Amphitrite ornata, UniProt Q9NAV7); substrate, HPLC; 500 µM, 5 min, pH 7, 25 °C, 5% methanol, together with: H2O2).
The Km of [Na+].[Na+].[Na+].[O]=[V]([O-])([O-])[O-] is reported as 0.19 ± 0.04 µM (ALPI (Bos taurus, UniProt P19111); 0.25 µM, together with: DiFMUP substrate).
Under “change in baseline activity”, CCNC(=O)c1ccc(COc2ccccc2-c2cc(=O)n(C3CCCCC3O)cn2)cc1 (centres unmarked) is recorded as 99.8 ± 2.7 (CHRM1; allosteric agonist, IP1 accumulation; CHO-M1 cells; 10 µM, unit not given; reference: maximum ACh response).
COc1ccc(C)c2sc(NC(=O)c3ccc(C)cc3)nc12: activity “inactive” (CHRM4 (Homo sapiens, UniProt P08173); calcium mobilization, positive allosteric modulator; CHO expressing hM4 and Gqi5; concentration not given, together with: acetylcholine EC20).
For COC(=O)c1scc(C)c1NC(=O)C(C)N1CCN(C)C(C)C1 (centres unmarked), “capacity factor k′” read 3.2 (SCN10A (Homo sapiens, UniProt Q9Y5Y9); cell membrane chromatography; higher = stronger binding).
For O=C(O)c1ccc(COc2ccccc2-c2cc(=O)n(C3CCCCC3O)cn2)cc1 (centres unmarked), “change in baseline activity” read -6.7 ± 2.8 (CHRM1; allosteric agonist, IP1 accumulation; CHO-M1 cells; 1 µM, unit not given; reference: maximum ACh response).
C[C@H](CCCOc1ccc(C(=O)O)cc1)[C@H]1CC[C@H]2[C@@H]3CC=C4C[C@@H](O)CC[C@]4(C)[C@H]3CC[C@]12C has an Emax of ~44% (GPBAR1 (Homo sapiens, UniProt Q8TDU6); CRE reporter gene, agonist, luciferase reporter; HEK293T transfected; 10 µM; reference: TLCA).
C=CC(C)(C)c1cc2c(cc1O)OC[C@H](c1cc(-c3oc4cc(O)ccc4c3C(=O)c3cc(C(C)(C)C=C)c(O)cc3O)c(O)cc1O)C2 — result for “concentration doubling activity”: 2.1 µM (quinone reductase; inducer; Hepa1c1c7).
Under “change in baseline activity”, Cn1cc(-c2ccc(COc3ccccc3-c3cc(=O)n(C4CCCCC4O)cn3)c(F)c2)cn1 (centres unmarked) is recorded as 46.8 ± 3.7 (CHRM1; allosteric agonist, IP1 accumulation; CHO-M1 cells; 1 µM, unit not given; reference: maximum ACh response).
For `B1`, the methylation conversion was ≥ 90% (SETD7 (Homo sapiens, UniProt Q8WTS6); peptide methylation, substrate, MALDI-TOF MS; 10 µM, 3 h, pH 8.0, 37 °C, enzyme 500 nM, together with: SAM 30 µM).
Under “ΔpEC50 of ACh”, O=c1cc(-c2ccccc2OCc2ccccc2)ncn1C1CCCCC1O (centres unmarked) is recorded as 1.83 ± 0.11 log units (CHRM1; positive allosteric modulator, IP1 accumulation; CHO-M1 cells; 10 µM, 60 min, 37 °C, together with: ACh; reference: ACh alone, higher = stronger potentiation).
The Kd of O=c1[nH]cnc2c1ncn2[C@@H]1O[C@@H]2COP(=O)(O)O[C@H]3[C@@H](O)[C@H](n4cnc5c(=O)[nH]cnc54)O[C@@H]3COP(=O)(O)O[C@H]2[C@H]1O is reported as 4.1 nM (T1, c-di-GMP riboswitch (Clostridium acetobutylicum); competitor, competition gel-shift; 4-24 h, pH 6.8, 22 °C, together with: radiolabelled c-di-GMP).
